Experimental data from different studies.
Parts stem from different laboratories: compare values within a part only. Values joined by “and” are separate records of one study, mostly repeats; a detail may differ.
Sequence of UniProt Q13237 (whole entry, looked up): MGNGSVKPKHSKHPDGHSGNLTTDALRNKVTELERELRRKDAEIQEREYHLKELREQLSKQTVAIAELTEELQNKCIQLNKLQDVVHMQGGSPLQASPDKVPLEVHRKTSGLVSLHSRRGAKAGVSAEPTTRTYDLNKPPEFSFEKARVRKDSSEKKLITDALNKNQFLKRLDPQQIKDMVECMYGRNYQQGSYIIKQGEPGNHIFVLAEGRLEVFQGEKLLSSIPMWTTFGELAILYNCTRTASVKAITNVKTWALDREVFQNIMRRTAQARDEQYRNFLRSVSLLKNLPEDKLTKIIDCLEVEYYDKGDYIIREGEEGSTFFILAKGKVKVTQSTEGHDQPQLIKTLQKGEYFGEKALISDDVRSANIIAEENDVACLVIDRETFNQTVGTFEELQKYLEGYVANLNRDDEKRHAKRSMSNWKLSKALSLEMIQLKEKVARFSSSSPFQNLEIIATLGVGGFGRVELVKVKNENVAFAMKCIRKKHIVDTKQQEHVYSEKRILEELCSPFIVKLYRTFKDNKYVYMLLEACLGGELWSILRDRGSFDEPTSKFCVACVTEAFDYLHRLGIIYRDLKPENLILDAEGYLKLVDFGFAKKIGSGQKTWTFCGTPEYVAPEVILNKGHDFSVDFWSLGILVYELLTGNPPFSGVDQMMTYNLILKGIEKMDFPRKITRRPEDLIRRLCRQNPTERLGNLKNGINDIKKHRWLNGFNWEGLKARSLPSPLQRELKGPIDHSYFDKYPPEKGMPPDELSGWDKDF
Sequence of UniProt P00519 (whole entry, unmodified, looked up): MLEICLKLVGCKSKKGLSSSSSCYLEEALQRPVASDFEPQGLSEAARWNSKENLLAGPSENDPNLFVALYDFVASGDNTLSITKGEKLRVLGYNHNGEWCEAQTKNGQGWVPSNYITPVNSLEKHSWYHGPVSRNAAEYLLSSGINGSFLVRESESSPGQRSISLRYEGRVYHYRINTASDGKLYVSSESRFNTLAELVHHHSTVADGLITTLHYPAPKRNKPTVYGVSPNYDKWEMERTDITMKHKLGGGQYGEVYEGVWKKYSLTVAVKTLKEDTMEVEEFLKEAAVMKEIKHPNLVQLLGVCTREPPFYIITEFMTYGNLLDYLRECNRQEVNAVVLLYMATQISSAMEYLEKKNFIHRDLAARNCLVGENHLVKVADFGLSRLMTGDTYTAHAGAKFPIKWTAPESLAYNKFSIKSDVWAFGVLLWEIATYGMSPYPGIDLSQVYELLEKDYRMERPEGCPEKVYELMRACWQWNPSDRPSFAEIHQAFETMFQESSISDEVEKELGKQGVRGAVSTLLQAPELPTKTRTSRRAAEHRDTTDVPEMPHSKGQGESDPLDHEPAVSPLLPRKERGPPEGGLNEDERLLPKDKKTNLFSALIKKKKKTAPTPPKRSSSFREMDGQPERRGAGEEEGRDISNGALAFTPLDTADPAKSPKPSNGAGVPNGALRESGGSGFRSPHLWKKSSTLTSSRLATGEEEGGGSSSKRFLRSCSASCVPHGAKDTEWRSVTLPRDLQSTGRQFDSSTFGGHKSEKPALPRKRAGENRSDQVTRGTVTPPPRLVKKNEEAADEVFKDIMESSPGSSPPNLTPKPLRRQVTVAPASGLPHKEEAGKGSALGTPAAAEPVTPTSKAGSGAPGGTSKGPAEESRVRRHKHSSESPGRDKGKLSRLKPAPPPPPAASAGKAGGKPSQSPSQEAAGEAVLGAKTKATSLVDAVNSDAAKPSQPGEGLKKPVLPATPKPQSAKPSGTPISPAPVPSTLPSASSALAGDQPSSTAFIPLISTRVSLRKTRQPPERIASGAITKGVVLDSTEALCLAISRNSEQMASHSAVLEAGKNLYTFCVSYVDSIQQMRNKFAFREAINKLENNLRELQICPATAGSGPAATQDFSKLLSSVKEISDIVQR
Sequence of UniProt Q14680 (whole entry, looked up): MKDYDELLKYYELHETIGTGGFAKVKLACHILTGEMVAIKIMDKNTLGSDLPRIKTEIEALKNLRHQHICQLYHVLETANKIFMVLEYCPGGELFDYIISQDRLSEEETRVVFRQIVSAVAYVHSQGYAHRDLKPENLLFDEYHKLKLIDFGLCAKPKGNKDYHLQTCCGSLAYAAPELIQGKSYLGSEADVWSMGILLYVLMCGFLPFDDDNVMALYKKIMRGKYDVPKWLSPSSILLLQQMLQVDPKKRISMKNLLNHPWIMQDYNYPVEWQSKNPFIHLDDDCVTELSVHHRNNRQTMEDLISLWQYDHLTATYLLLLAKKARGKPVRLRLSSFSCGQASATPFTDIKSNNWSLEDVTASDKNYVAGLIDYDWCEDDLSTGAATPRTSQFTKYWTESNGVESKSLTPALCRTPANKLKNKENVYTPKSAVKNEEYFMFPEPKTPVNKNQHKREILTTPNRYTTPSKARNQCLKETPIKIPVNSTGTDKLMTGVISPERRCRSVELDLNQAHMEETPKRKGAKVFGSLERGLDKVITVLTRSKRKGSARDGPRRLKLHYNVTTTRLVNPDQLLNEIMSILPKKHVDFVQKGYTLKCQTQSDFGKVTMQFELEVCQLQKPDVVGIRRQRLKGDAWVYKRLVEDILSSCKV
Sequence of UniProt Q15759 (whole entry, looked up): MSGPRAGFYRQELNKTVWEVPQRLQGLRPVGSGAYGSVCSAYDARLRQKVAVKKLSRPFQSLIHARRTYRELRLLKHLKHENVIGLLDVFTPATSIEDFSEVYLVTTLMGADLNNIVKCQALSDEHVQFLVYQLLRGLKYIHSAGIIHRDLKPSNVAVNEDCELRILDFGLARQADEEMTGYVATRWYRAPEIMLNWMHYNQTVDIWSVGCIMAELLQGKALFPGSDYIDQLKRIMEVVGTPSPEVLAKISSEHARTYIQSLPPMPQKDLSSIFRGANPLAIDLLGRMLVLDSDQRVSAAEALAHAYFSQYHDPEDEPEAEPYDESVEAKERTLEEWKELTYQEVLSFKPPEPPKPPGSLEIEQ

Block 1 — Structure (SMILES): O=C(Nc1ccccc1)Nc1cccc(Oc2ccc3nccn3n2)c1; concentration: 1 µM
For ABL1 (Homo sapiens, UniProt P00519, T315I); binding: remaining binding read 93%.
It gave 100% for remaining binding (DCLK2 (Homo sapiens, UniProt Q8N568); binding).
The remaining binding was 100% (PRKD3 (Homo sapiens, UniProt O94806); binding).
It gave 90% for remaining binding (EPHB4 (Homo sapiens, UniProt P54760); binding, competition with immobilised ligand).
MELK (Homo sapiens, UniProt Q14680); binding — remaining binding: 100%.
The remaining binding was 100% (PRKG2 (Homo sapiens, UniProt Q13237); binding).
The remaining binding was 71% (SRPK3 (Homo sapiens, UniProt Q9UPE1); binding).
For MAPK11 (Homo sapiens, UniProt Q15759); binding, competition with immobilised ligand: remaining binding read 100%.
The remaining binding was 100% (SGK1 (Homo sapiens, UniProt O00141); binding).
For MAP3K2 (Homo sapiens, UniProt Q9Y2U5); binding, competition with immobilised ligand: remaining binding read 100%.
The remaining binding was 73% (HIPK2 (Homo sapiens, UniProt Q9H2X6); cell-free binding).
IRAK1 (Homo sapiens, UniProt P51617); binding — remaining binding: 91%.
PAK6 (Homo sapiens, UniProt Q9NQU5); binding — remaining binding: 100%.
For ERN1 (Homo sapiens, UniProt O75460); binding: remaining binding read 100%.
MKNK1 (Homo sapiens, UniProt Q9BUB5); binding, competition with immobilised ligand — remaining binding: 90%.
PIK3CA (Homo sapiens, UniProt P42336, E542K); binding — remaining binding: 99%.

Block 2 — observed: thermal unfolding; technique: differential scanning fluorimetry; concentration: 5.5 µM; reading: higher = more unfolded
SMILES: C[C@@H]1CN(c2ccc(-c3cc(C(=O)NCCOCCOCCOCCOCCNC(=O)/C=C/c4[nH]cc(C(=O)N[C@@H](CC(N)=O)c5ccc(F)c(Cl)c5)c4-c4ccc(Cl)cc4F)ccc3F)cc2NC(=O)c2c[nH]c(=O)cc2C(F)(F)F)C[C@H](C)N1C
WDR5: WD repeat-containing protein 5 (WDR5, Homo sapiens, UniProt P61964)
DCAF1: DDB1- and CUL4-associated factor 1 (DCAF1, Homo sapiens, UniProt Q9Y4B6)
Sequence of UniProt Q9Y4B6 (whole entry, looked up): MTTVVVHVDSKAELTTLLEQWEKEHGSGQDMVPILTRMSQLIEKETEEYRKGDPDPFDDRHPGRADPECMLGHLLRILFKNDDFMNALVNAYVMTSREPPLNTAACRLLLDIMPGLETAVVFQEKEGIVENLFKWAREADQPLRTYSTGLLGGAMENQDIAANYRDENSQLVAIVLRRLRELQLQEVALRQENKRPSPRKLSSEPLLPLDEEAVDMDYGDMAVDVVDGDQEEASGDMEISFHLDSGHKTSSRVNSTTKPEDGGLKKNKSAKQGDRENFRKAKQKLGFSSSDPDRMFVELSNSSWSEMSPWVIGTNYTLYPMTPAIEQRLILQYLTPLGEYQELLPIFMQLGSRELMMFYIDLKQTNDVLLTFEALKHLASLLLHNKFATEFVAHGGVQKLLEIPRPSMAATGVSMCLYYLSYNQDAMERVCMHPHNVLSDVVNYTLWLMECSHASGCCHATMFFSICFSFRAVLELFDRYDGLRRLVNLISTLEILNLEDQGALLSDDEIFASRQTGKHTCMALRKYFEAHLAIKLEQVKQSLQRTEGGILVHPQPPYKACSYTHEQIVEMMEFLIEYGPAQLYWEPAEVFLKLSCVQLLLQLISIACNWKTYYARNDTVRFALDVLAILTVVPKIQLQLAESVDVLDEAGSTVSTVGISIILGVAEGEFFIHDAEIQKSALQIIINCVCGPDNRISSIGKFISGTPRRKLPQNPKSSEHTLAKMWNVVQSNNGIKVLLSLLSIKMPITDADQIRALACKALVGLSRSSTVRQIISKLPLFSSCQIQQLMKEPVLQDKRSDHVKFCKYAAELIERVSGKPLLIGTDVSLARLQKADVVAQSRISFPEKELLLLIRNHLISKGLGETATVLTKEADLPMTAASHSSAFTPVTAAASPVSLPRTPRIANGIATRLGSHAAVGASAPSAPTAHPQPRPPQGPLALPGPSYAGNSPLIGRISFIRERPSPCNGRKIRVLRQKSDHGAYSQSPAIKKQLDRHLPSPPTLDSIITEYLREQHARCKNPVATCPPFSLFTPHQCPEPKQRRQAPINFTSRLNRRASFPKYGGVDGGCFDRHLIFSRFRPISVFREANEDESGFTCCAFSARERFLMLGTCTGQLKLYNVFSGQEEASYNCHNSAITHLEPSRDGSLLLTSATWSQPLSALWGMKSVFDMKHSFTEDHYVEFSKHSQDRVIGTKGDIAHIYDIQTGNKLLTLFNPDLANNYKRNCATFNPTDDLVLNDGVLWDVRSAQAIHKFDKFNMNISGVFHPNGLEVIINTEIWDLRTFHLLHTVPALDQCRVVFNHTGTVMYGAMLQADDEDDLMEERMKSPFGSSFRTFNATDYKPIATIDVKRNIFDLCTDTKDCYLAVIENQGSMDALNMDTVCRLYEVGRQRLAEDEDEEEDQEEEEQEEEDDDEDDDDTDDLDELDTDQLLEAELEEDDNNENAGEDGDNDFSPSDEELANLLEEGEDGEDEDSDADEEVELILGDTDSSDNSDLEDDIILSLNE
It gave 51600 a.u. for “SYPRO Orange fluorescence” (WDR5; 89.61 °C).
It gave 46600 a.u. for “SYPRO Orange fluorescence” (WDR5; 82.21 °C).
For DCAF1; 34 °C: “SYPRO Orange fluorescence” read 9910 a.u.
WDR5; 71.61 °C — “SYPRO Orange fluorescence”: 18700 a.u.
The “SYPRO Orange fluorescence” was 16500 a.u. (WDR5; 57.01 °C).
For WDR5; 93.01 °C: “SYPRO Orange fluorescence” read 47500 a.u.
The “SYPRO Orange fluorescence” was 15400 a.u. (WDR5; 45.2 °C).
It gave 11900 a.u. for “SYPRO Orange fluorescence” (DCAF1; 41 °C).
The “SYPRO Orange fluorescence” was 9830 a.u. (DCAF1; 33.4 °C).
For DCAF1; 75.21 °C: “SYPRO Orange fluorescence” read 49800 a.u.
For WDR5; 71.01 °C: “SYPRO Orange fluorescence” read 17700 a.u.

Block 3 — organism: Arabidopsis thaliana; strain: Col-0; medium: seedlings
SMILES: O=C(O)C1Oc2cc(F)ccc2N(Cc2ccccc2)C1=O (stereo not shown)
It gave 37.8% for inhibition (root length; 100 µg/mL; reference: water control).
hypocotyl length; 25 µg/mL — inhibition: 14.9%.
For root length; 12.5 µg/mL; reference: water control: inhibition read 12.4%.
root length; 12.5 µg/mL — inhibition: 12.4%.
hypocotyl length; 3.125 µg/mL — inhibition: 3.44%.
hypocotyl length; 50 µg/mL — inhibition: 24.2%.
It gave 37.8% for inhibition (root length; 100 µg/mL).
root length; 3.125 µg/mL; reference: water control — inhibition: 5.21%.
For root length; 6.25 µg/mL: inhibition read 10.8%.

Block 4 — cell line: U-87 MG; concentration: concentration not given; reference: DMSO
SMILES: CCN1/C(=C/C=C2\CCCC(/C=C/C3=[N+](CC)c4ccccc4C3(C)C)=C2NCCCCCCCCN2CCC(Nc3nc4ccccc4n3Cc3ccc(F)cc3)CC2)C(C)(C)c2ccccc21
The “log2 fold change” was -1.27 (item: SLC16A2 mRNA).
item: ZNF805 mRNA — “log2 fold change”: 1.09.
For item: IFI30 mRNA: “log2 fold change” read -1.14.
The “log2 fold change” was 1.71 (item: RWDD2A mRNA).
For item: MSH2 mRNA: “log2 fold change” read -1.1.
The “log2 fold change” was -1.32 (item: DOP1B mRNA).
It gave -1.19 for “log2 fold change” (item: IL11RA mRNA).
It gave 1.02 for “log2 fold change” (item: PMEPA1 mRNA).
The “log2 fold change” was 1.33 (item: ETS2 mRNA).
item: NFE2 mRNA — “log2 fold change”: -3.88.
item: GSPT2 mRNA — “log2 fold change”: 1.06.
item: RCAN1 mRNA — “log2 fold change”: 1.9.

Block 5
Structure (SMILES): Cc1ncc(-c2cc3c(C#N)c(-c4c(C)ccc(O)c4C)cnc3[nH]2)cn1
Target: Membrane-associated tyrosine- and threonine-specific cdc2-inhibitory kinase (PKMYT1, Homo sapiens, UniProt Q99640)
Target sequence (Q99640 1-499): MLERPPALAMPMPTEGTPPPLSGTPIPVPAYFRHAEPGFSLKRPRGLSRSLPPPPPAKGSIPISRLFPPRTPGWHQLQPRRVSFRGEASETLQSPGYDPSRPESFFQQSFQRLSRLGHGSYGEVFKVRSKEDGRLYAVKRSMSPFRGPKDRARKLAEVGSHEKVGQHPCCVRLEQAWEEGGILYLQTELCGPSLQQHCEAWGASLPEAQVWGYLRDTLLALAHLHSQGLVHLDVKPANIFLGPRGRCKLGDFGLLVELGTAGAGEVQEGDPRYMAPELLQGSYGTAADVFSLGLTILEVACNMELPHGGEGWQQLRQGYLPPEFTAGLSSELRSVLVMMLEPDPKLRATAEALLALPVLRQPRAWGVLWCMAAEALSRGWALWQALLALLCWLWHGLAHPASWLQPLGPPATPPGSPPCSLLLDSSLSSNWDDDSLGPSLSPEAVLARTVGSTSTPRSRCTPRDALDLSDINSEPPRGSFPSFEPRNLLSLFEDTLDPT
cell-free assay, TR-FRET; 1.52 nM — inhibition: 47.3%.
0.01372 µM — inhibition: 95%.
It gave 104% for inhibition (10 µM).
It gave 100% for inhibition (0.3704 µM).
It gave 83% for inhibition (cell-free assay, TR-FRET; 4.57 nM).
It gave 105% for inhibition (cell-free assay, TR-FRET; 10 µM).
The inhibition was 4.44% (cell-free assay, TR-FRET; 508 pM).
For 3.333 µM: inhibition read 102%.

Block 6 — technique: FLIPR membrane potential; cells: CHO-BC; concentration: 30 µM; notes: unit not given; reference: uninhibited
Target: Sodium-dependent neutral amino acid transporter B(0)AT1 (SLC6A19, Homo sapiens, UniProt Q695T7)
Sequence of UniProt Q695T7 (whole entry, looked up): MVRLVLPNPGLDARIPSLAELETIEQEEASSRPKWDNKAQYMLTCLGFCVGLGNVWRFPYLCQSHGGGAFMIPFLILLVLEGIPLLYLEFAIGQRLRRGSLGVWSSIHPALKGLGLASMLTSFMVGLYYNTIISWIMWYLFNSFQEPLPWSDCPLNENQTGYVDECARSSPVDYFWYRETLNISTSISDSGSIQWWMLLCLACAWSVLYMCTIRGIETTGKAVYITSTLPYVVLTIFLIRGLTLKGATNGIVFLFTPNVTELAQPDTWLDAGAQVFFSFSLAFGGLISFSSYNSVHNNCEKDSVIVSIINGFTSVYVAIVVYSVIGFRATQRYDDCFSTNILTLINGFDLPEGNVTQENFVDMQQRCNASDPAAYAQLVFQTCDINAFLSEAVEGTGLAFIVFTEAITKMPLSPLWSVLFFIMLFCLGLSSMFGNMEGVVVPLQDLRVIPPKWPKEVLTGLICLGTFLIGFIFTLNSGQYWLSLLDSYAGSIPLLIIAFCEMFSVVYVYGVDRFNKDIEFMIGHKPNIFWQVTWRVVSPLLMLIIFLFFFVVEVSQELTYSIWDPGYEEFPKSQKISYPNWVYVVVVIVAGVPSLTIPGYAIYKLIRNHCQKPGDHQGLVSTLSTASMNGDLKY
For `CCNC(=O)COc1cc(C)c(Cl)c(C)c1`, the remaining activity was 0.539 and 0.5 and 0.56 and 0.483 and 0.465.
With `Cc1cc(OCC(=O)NC(C)C)cc(C)c1I` the remaining activity was 0.247 and 0.211 and 0.174 and 0.126 and 0.151.
`Cc1cc(OCC(=O)NC(C)C)cc(C)c1Br` has a remaining activity of 0.27 and 0.196 and 0.208 and 0.237.

Block 7 — cell line: Gaucher fibroblasts L444P/L444P; technique: 4-MUG hydrolysis, cell lysate; concentration: 10 µM; reference: DMSO
`CCOc1ccc2nc(Sc3nc(N4CCOCC4)nc(N4CCOCC4)n3)sc2c1` has a GCase activity of 125% and 111% and 92.6% and 121%.
For `Cc1ccc(Nc2nc(NCCN3CCOCC3)nc(N3CCOCC3)n2)cc1`, the GCase activity was 141% and 171% and 144% and 166% and 142%.
For `COc1ccc(Nc2nc(NCCN3CCOCC3)nc(N3CCOCC3)n2)cc1`, the GCase activity was 104% and 109% and 103% and 113%.
With `Ic1ccc(Nc2nc(N3CCOCC3)nc(N3CCOCC3)n2)cc1` the GCase activity was 195% and 78.9% and 193% and 59.7% and 202%.
`Fc1ccc(Nc2nc(NCCN3CCOCC3)nc(N3CCOCC3)n2)cc1` has a GCase activity of 104% and 106% and 110% and 111% and 105%.
`Ic1ccc(Nc2nc(NCCc3c[nH]c4ccccc34)nc(NCCN3CCOCC3)n2)cc1` gave a GCase activity of 105% and 96.7% and 88.8% and 101%.
`Ic1cccc(Nc2nc(NCCN3CCOCC3)nc(N3CCOCC3)n2)c1` has a GCase activity of 130% and 154% and 133% and 124% and 116% and 114%.
`CCOc1ccc2nc(Sc3nc(Nc4ccc(OC)cc4)nc(N4CCOCC4)n3)sc2c1` has a GCase activity of 206% and 209% and 237% and 223%.

Block 8 — observed: enzyme activity; action: inhibitor; technique: Ub-TR-FRET; medium: HECT domain; concentration: 100 µM; reading: higher = more chain formation
Target: E3 ubiquitin-protein ligase NEDD4, HECT domain (Homo sapiens, UniProt P46934)
Target sequence (P46934 938-1319, limits assumed): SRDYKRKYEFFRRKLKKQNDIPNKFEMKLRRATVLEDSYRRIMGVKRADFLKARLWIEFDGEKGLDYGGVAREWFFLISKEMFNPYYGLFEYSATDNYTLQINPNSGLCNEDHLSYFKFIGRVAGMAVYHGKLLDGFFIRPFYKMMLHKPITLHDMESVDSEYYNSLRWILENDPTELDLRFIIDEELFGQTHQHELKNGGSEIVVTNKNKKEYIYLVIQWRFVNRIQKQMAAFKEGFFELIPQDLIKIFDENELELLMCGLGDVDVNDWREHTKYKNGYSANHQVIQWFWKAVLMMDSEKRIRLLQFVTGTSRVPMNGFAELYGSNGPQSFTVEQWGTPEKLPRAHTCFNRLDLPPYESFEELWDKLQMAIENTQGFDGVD
`CCOC(=O)/C=C/CNCCCCN1c2cc(Cl)ccc2COc2ccccc21.O=C(O)/C=C\C(=O)O` — result for “ubiquitin chain formation AUC”: 12800 a.u. and 13000 a.u.
Under “ubiquitin chain formation AUC”, `C=CC(=O)NCCCN1c2ccccc2CCc2ccc(Cl)cc21` is recorded as 188000 a.u. and 185000 a.u.
`CONC(=O)/C=C/CNCCCCN1c2ccccc2CCc2ccc(Cl)cc21.O=C(O)/C=C\C(=O)O` — result for “ubiquitin chain formation AUC”: 7400 a.u. and 7160 a.u. and 7490 a.u. and 7560 a.u. and 7810 a.u. and 7840 a.u.
`CN(C)C(=O)/C=C/CNCCCN1c2ccccc2CCc2ccc(Cl)cc21.Cl`: “ubiquitin chain formation AUC” 100000 a.u. and 101000 a.u. and 105000 a.u.
`CN(C)C/C=C/C(=O)NCCCN1c2ccccc2CCc2ccc(Cl)cc21`: “ubiquitin chain formation AUC” 84500 a.u. and 75800 a.u. and 76300 a.u.
Under “ubiquitin chain formation AUC”, `CCOC(=O)/C=C/CNCCCN1c2ccccc2CCc2ccc(Cl)cc21` is recorded as 5910 a.u. and 5270 a.u. and 6230 a.u.
`CCOC(=O)/C=C/CNCCCCN1c2ccccc2COc2ccc(Cl)cc21.O=C(O)/C=C\C(=O)O`: “ubiquitin chain formation AUC” 10500 a.u. and 11100 a.u. and 10400 a.u.
`CCOC(=O)/C=C/CNCCCCN1c2cc(Cl)ccc2CCc2cnn(C)c21.O=C(O)/C=C\C(=O)O` — result for “ubiquitin chain formation AUC”: 6880 a.u. and 6460 a.u. and 5960 a.u. and 5210 a.u. and 7100 a.u. and 5300 a.u.
For `CCOC(=O)/C=C/CNCCCCN1c2ccccc2C(=O)N(C)c2ccc(Cl)cc21.O=C(O)/C=C\C(=O)O`, “ubiquitin chain formation AUC” read 11300 a.u. and 11800 a.u. and 11200 a.u.

Excerpt of the above (block 1):
For MAPK11 (Homo sapiens, UniProt Q15759); binding, competition with immobilised ligand: remaining binding read 100%.
For ERN1 (Homo sapiens, UniProt O75460); binding: remaining binding read 100%.
MKNK1 (Homo sapiens, UniProt Q9BUB5); binding, competition with immobilised ligand — remaining binding: 90%.
For MAP3K2 (Homo sapiens, UniProt Q9Y2U5); binding, competition with immobilised ligand: remaining binding read 100%.
MELK (Homo sapiens, UniProt Q14680); binding — remaining binding: 100%.
The remaining binding was 100% (PRKG2 (Homo sapiens, UniProt Q13237); binding).
The remaining binding was 73% (HIPK2 (Homo sapiens, UniProt Q9H2X6); cell-free binding).
PAK6 (Homo sapiens, UniProt Q9NQU5); binding — remaining binding: 100%.
